Measured values gathered from unrelated publications.
Lines come from different studies, so protocols differ.
Cell line: K562

N#Cc1c(N)nc2c(c1-c1ccc(CO)o1)Cc1c(O)cccc1-2
IC50 (cell viability, CellTiter-Glo; no inhibition at 100 µM): > 100000 nM

Cc1nc(NCCOCCOCCOCCNc2ncc(C(=O)NC3=NN(c4ccc(Cl)c(Cl)c4)CC3)c(C)n2)ncc1C(=O)NC1=NN(c2ccc(Cl)c(Cl)c2)CC1
EC50 (cell growth or viability, ATP luminescence; 72 h): 1780 nM

C/C1=C\[C@H](C)C[C@H](C)OC(=O)C[C@H](c2ccc(O)cc2)NC(=O)[C@@H](Cc2ccc(O)cc2)N(C)C(=O)[C@H](C)NC(=O)[C@@H](C)C1
GI50 (cell growth or viability): > 50 µg/mL

C=C(NC(=O)c1csc(-c2cccnc2)n1)C(=O)NC(=C)C(=O)OC
EC50 (cell growth or viability): 2900 nM

N#Cc1c(N)nc2c(c1-c1ccc(CO)o1)Cc1cccc(O)c1-2
IC50 (cell viability, CellTiter-Glo; no inhibition at 100 µM): > 100000 nM

Cc1[nH][n+]([Pd-2]([Br])([Br])[n+]2[nH]c(C)c(CSCc3ccccc3)c2C)c(C)c1CSCc1ccccc1
selectivity index (cytotoxicity; relative to: IC50 HEK293 over IC50 K562): 1.4

COc1cc(/C=C/C(=O)/C=C(O)/C=C/c2ccc(OCC(=O)N3CCOCCOCCOCCOCCOCC3)c(OC)c2)ccc1OCC(=O)N1CCOCCOCCOCCOCCOCC1
inhibition (cell growth or viability, SRB; 25 µM): 91%

CN1CCC(N[C@H]2CCc3[nH]c4c(C(N)=O)ccc(-c5ccccc5Cl)c4c3C2)CC1
IC50 (cell growth or viability): 735 nM

Cc1[nH][n+]([Pd-2]([Br])([Br])[n+]2[nH]c(C)c(CSC3CCCCC3)c2C)c(C)c1CSC1CCCCC1
selectivity index (cytotoxicity; relative to: IC50 HEK293 over IC50 K562): 3.7

CN(C)CCN1CCN(c2ccc3nc(-c4ccc5nc(-c6ccc(C(F)(F)F)cc6)[nH]c5c4)[nH]c3c2)CC1
growth percent (SRB; 10 µM, 48 h): 11.6%

CNS(=O)(=O)Nc1nccc(Cc2c(C)c3ccc(Oc4ncccc4F)cc3oc2=O)c1F
IC50 (cell viability; 7 days): 19.8 nM

C/C1=C\CC[C@H](C)OC(=O)C[C@H](c2ccc(O)cc2)NC(=O)[C@@H](Cc2ccc(O)cc2)N(C)C(=O)[C@H](C)NC(=O)[C@@H](C)C1
GI50 (cell growth or viability): > 50 µg/mL

Cc1nc(NCCOCCOCCNc2ncc(C(=O)NC3=NN(c4ccc(Cl)c(Cl)c4)CC3)c(C)n2)ncc1C(=O)NC1=NN(c2ccc(Cl)c(Cl)c2)CC1
EC50 (cell growth or viability, ATP luminescence; 72 h): 69 nM

CCCC(CCC)C(=O)OCc1cn(-c2cc3ccccc3oc2=O)nn1
growth percentage (NCI60 single-dose screen; 10 µM): 93.3%

Cc1cc(C)cc(NC(=O)N(Cc2ccc(C(=O)NO)cc2)OCc2ccccc2)c1
IC50 (cell growth or viability, ATP luminescence; 72 h): 5790 nM

CC(C)=CC1OC(C)(C)C2C=C3C(=O)C(Cl)=CC(O)C3C3C(O)C4OC4C(=O)C132 (centres unmarked)
IC50 (cell growth or viability, MTS): 3950 nM

CCOc1cncc(-c2ccc(NC(=O)C3(c4ccnc(NS(=O)(=O)C5CC5)n4)CCOCC3)nc2)n1
IC50 (cell proliferation, CellTiter-Glo; 72 h): 43 nM

C=CS(=O)(=O)c1ccc(OC)c(-c2c[nH]c3ncc(-c4cncc(C(=O)N(C)C)c4)cc23)c1
GI50 (cell growth or viability, MTT; 72 h): > 1000 nM

Cc1nc(NCCNc2ncc(C(=O)NC3=NN(c4ccc(Cl)c(Cl)c4)CC3)c(C)n2)ncc1C(=O)NC1=NN(c2ccc(Cl)c(Cl)c2)CC1
EC50 (cell growth or viability, ATP luminescence; 72 h): > 5000 nM

COc1ccc(O)cc1-c1c[nH]c2ncc(-c3cncc(C(=O)N(C)C)c3)cc12
GI50 (cell growth or viability, MTT; 72 h): 17 nM

N#Cc1c(N)nc2c(c1-c1ccc(F)cc1)Cc1cc(O)ccc1-2
IC50 (cell viability, CellTiter-Glo; no inhibition at 100 µM): > 100000 nM

COc1cc(/C=C/C(=O)/C=C(O)/C=C/c2ccc(OCC(=O)N3CCOCCOCCOCC3)c(OC)c2)ccc1OCC(=O)N1CCOCCOCCOCC1
inhibition (cell growth or viability, SRB; 25 µM): 78%

C=CC(=O)Nc1ccc(OC)c(-c2c[nH]c3ncc(-c4cncc(C(=O)N(C)C)c4)cc23)c1
GI50 (cell growth or viability, MTT; 72 h): > 1000 nM

CCN(C(=O)c1cc(F)ccc1Oc1nncnc1N1CCC2(C1)CN([C@H](CCCN(C)CCOC)C(C)C)C2)C(C)C
GI50 (cell growth or viability; 7 days): > 10000 nM

C=CS(=O)(=O)Oc1ccc(OC)c(-c2c[nH]c3ncc(-c4cncc(C(=O)N(C)C)c4)cc23)c1
GI50 (cell growth or viability, MTT; 72 h): 532 nM

NC(=O)c1ccc(-c2ccccc2Cl)c2c3c([nH]c12)CC[C@@H](N)C3
IC50 (cell growth or viability): 13.9 nM

Some of these lines once more:
COc1ccc(O)cc1-c1c[nH]c2ncc(-c3cncc(C(=O)N(C)C)c3)cc12
GI50 (cell growth or viability, MTT; 72 h): 17 nM

COc1cc(/C=C/C(=O)/C=C(O)/C=C/c2ccc(OCC(=O)N3CCOCCOCCOCCOCCOCC3)c(OC)c2)ccc1OCC(=O)N1CCOCCOCCOCCOCCOCC1
inhibition (cell growth or viability, SRB; 25 µM): 91%
